Experimental data of several laboratories.
Lines come from different studies, so protocols differ. ± marks the error that the study gave. Bridges are numbered along the chain shown (N, C = ends). Where no end group is shown, it is not given here. Ends that are not written are not given here.

| Substance | assay | test system | setting | scale | measurement | result |
| --- | --- | --- | --- | --- | --- | --- |
| CCCCCCSc1nnc(COc2ccc3c(c2)NC(=O)CC3)o1 | forced swimming test | mice | 40 mg/kg, 0.5 h | relative to: control | immobility duration decrease | 9.67% |
| CC(C)[C@H]1C(=O)N[C@@H](CCCNC(=N)N)C(=O)NCC(=O)N[C@@H](CC(=O)O)C(=O)N[C@H](Cc2ccccc2)C(=O)N1C |  | human | concentration not given |  | progression-free time | > 100 weeks |
| O=C1NC(=O)C(c2ccccc2)(c2ccccc2)N1 | maximal electroshock seizure protection | C57BL/6J male mouse | oral, 2 h |  | ED50 | ~5 mg/kg |
| Polymyxin B |  | human whole blood | 250 ng/mL, 4 h, 37 °C, with: E. coli LPS 0.5 ng/mL | relative to: LPS without compound | TNF-α release | 4.2 ± 2.3% |
| CCOc1ccc(Cc2cc([C@@H]3O[C@H](SC)[C@@H](O)[C@H](O)[C@H]3O)ccc2Cl)cc1 |  | healthy Chinese subjects | oral, 400 mg once daily, 24 h, day 1 |  | urinary glucose excretion | 45 g |
| Cc1cc(C)c(/C=C2\C(=O)Nc3ccccc32)[nH]1 | MRI | human | dose not given, 5.4 months |  | tumour volume | 75.9 cm³ |
| Cn1cnc2ncn(Cc3nc(CCc4ccc(Cl)cc4)no3)c(=O)c21 | AITC-evoked nocifensive behaviour, antagonist | rat, plasma unbound | oral, with: AITC |  | EC50 | 62 ± 26 nM |
| CNCCC(Oc1ccc(C(F)(F)F)cc1)c1ccccc1 (centres unmarked) | forced swimming test | mice | 40 mg/kg, 0.5 h | relative to: control | immobility duration decrease | 57% |
| CO[C@H]1/C=C\C=C(/C)C(=O)NC2=CC(=O)C(NCCN(C)C)=C(C[C@@H](C)C[C@H](OC)[C@H](O)[C@@H](C)/C=C(\C)[C@@H]1OC(N)=O)C2=O | western blot, measured: LCK | human, PBMC |  |  | dose | ≥ 40 mg/m² |
| CC(C)C[C@H](NC(=O)[C@H](CO)NC(=O)[C@H](CCCNC(=N)N)NC(=O)[C@H](CC(=O)O)NC(=O)[C@H](CCC(=O)O)NC(=O)[C@H](C)NC(=O)[C@@H]1CCCN1C(=O)[C@H](C)NC(=O)[C@H](CCC(=O)O)NC(=O)[C@@H]1CCCN1C(=O)[C@@H]1CCCN1)C(N)=O | HPLC-EC | rat F344, unilateral 6-OHDA lesion, contralateral striatum, wet tissue | intranasal, 300 µg daily, 5 weeks post lesion |  | dopamine level | 12300 ± 555 ng/g |
| CO[C@@H]1[C@H](N(C)C(=O)c2ccccc2)C[C@H]2O[C@]1(C)n1c3ccccc3c3c4c(c5c6ccccc6n2c5c31)C(=O)NC4 |  | newly diagnosed FLT3-wild-type AML patients | oral, 50 mg twice daily, with: daunorubicin/cytarabine induction chemotherapy | relative to: CR patients | CR after first induction cycle | 75% |
| CC(C)(O)c1ccccc1-c1ccc2[nH]c(/C=C/c3ccc(C(F)(F)F)cc3)nc2c1 |  | human |  | relative to: placebo | dose increasing heat pain threshold | ≥ 10 mg |
| NNC1=NC(=O)C(=C2c3ccccc3-c3nc4cc(F)ccc4nc32)S1 |  | mouse, STZ-induced diabetes | oral, 25 mg/kg, day 3 |  | blood glucose | 386 ± 61.2 mg/dL |
| CN1CCN(c2ccc(Nc3ncc4cc(C#N)c(=O)n(C5CCCC5)c4n3)cc2)CC1 | MSD immunoassay | mouse with intracerebral U87 tumour, brain tumour | intravenous, 25 mg/kg, 1 h after gefitinib, with: gefitinib 200 mg/kg oral |  | p-Erk suppression AUC below baseline | 274 %·h |
| CRWYDENAC (disulfide 1-9 (inferred)) (Cy7-labelled, cyclic, disulfide) | NIRF imaging | mouse, orthotopic HCCLM3 tumour | dose not given |  | time to peak fluorescence | 24 h |
| C[C@H]1C[C@H]2CSC(N)=N[C@@]2(c2nc(NC(=O)c3ccc(OC(F)F)cn3)cs2)CO1 | measured: CSF Aβ1–38 | healthy adults | 50 mg once daily, 14 days, day 15 | relative to: placebo-adjusted baseline | change from baseline | -57.2% |
| Cn1cnc2ncn(Cc3nc(CCc4ccc(Cl)cc4)no3)c(=O)c21 |  | mouse, CFA inflammation, saphenous skin-nerve preparation | 11 µM, 48 h, with: forces above 100 mN | relative to: DMSO vehicle | reduction of C-fibre firing | 59% |
| COc1ccc2c(c1)c(CC(=O)O)c(C)n2C(=O)c1ccc(Cl)cc1 | multiplex bead immunoassay, measured: IL-2 | CD-1 mice, serum | ip, 20 mg/kg, three-injection regimen, with: LPS 3 mg/kg |  | cytokine level | 7.4 ± 1.5 pg/mL |
| gamma-MSH |  | Sprague Dawley rat, urethane-anaesthetised | iv, 15 nmol |  | heart rate response resolution time | 5.93 ± 0.97 min |
| insulin lispro | euglycemic clamp | obese type 2 diabetic patients | subcutaneous, 30 units, 8 h |  | maximum glucose infusion rate | 2 mg/kg/min |
| CC(C)[C@H](NC(=O)[C@@H]1CSSC[C@H](NC(=O)[C@H](CC(=O)O)NC(=O)[C@@H]2CCCN2C(=O)[C@@H](NC(=O)[C@@H](N)CCC(=O)O)[C@@H](C)O)C(=O)N[C@@H](Cc2ccccc2)C(=O)N[C@@H](Cc2c[nH]c3ccccc23)C(=O)N[C@@H](CCCCN)C(=O)N[C@@H](Cc2ccc(O)cc2)C(=O)N1)C(=O)O |  | male Wistar rats, anaesthetised | intracavernous, 1 nmol per rat |  | ICP increase AUC | 268 ± 13.5 mmHg·s |
| CC(=O)Nc1cccc(OCc2nnc(SCc3cccc(Cl)c3)o2)c1 | forced swimming test | mice | 40 mg/kg, 0.5 h | relative to: control | immobility duration decrease | 45.9% |
| CC(=O)c1sc(NN=C2c3ccccc3-c3nc4cc(F)ccc4nc32)nc1C |  | mouse, STZ-induced diabetes | oral, 25 mg/kg, day 3 |  | blood glucose | 313 ± 4.9 mg/dL |
| c1ccc(CNCc2ccc(CN3CCCNCCNCCCNCC3)cc2)nc1 | multiple electrode aggregometry | human blood | 100 nM, with: collagen 0.2 µg/mL |  | platelet aggregation | decreased |
| Ac-LRKLRKRLLRDWLKAFYDKVAEKLKEAF-NH2 (N-acetyl, C-amide) |  | peptide, APP/PS1ΔE9 mice, plasma | retro-orbital, 50 µg/mouse 3 times weekly, 6 weeks |  | plasma total cholesterol | 171 ± 13.8 mg/dL |
| KCNTATCATQRLANFLVHSSNNFGPILPPTNVGSNTY (Pramlintide; not fully specified (C-terminus, bridges); cysteine pairing not given here; sequence looked up) |  | peptide, obese or overweight humans | subcutaneous, 360 µg twice daily, week 20, 20 weeks after 4-week lead-in with diet, LS mean | relative to: enrollment | body weight change | -8.4 ± 0.9% |
| CS/C(S)=N/CCCC[S+](C)[O-] (racemic) | RT-PCR, measured: Gpx5 | rat, colon | oral gavage, 200 mg/kg, 96 h, dosed for four days | relative to: vehicle | mRNA fold change | 1.35 |
| CC[C@H](C)[C@H](N)C(=O)N[C@@H](CC(C)C)C(=O)N1CCC[C@H]1C(=O)N[C@@H](Cc1c[nH]c2ccccc12)C(=O)N[C@@H](CCCCN)C(=O)N[C@@H](Cc1c[nH]c2ccccc12)C(=O)N1CCC[C@H]1C(=O)N[C@@H](Cc1c[nH]c2ccccc12)C(=O)N[C@@H](Cc1c[nH]c2ccccc12)C(=O)N1CCC[C@H]1C(=O)N[C@@H](Cc1c[nH]c2ccccc12)C(=O)N[C@@H](CCCNC(=N)N)C(=O)N[C@@H](CCCNC(=N)N)C(N)=O | carboxyfluorescein release | EYPC vesicles | 10 µg/mL, 250 s, pH 7.4, 25 °C | relative to: Triton X-100 | leakage | 18% |
| CCOc1ccc(-c2nc(-c3cccc4c3CCC4NCCO)no2)cc1OCC (centres unmarked) | blood B220+ cell count reduction, flow cytometry | mouse | intraperitoneal, 5 h |  | ED50 | 1 mg/kg |

Repeated from above:
| Substance | assay | test system | setting | scale | measurement | result |
| --- | --- | --- | --- | --- | --- | --- |
| C[C@H]1C[C@H]2CSC(N)=N[C@@]2(c2nc(NC(=O)c3ccc(OC(F)F)cn3)cs2)CO1 | measured: CSF Aβ1–38 | healthy adults | 50 mg once daily, 14 days, day 15 | relative to: placebo-adjusted baseline | change from baseline | -57.2% |
| CO[C@@H]1[C@H](N(C)C(=O)c2ccccc2)C[C@H]2O[C@]1(C)n1c3ccccc3c3c4c(c5c6ccccc6n2c5c31)C(=O)NC4 |  | newly diagnosed FLT3-wild-type AML patients | oral, 50 mg twice daily, with: daunorubicin/cytarabine induction chemotherapy | relative to: CR patients | CR after first induction cycle | 75% |
